Published values of several laboratories.
Each line is one published result; not all experiments were run side by side. ± marks the error that the study gave.
Organism: Staphylococcus aureus

SMILES	test	test system	conditions	MIC
CNC(CC(C)C)C(=O)NC1C(=O)NC(CC(N)=O)C(=O)NC2C(=O)NC3C(=O)NC(C(=O)NC(C(=O)O)c4cc(O)cc(O)c4-c4cc3ccc4O)C(O)c3ccc(c(Cl)c3)Oc3cc2cc(c3OC2OC(CO)C(O)C(O)C2OC2CC(C)(NC(=O)CCCC[N+](C)(C)C)C(O)C(C)O2)Oc2ccc(cc2Cl)C1O (stereo not shown)	agar dilution	MRSA clinical isolate MRSA3	–	512 µg/mL
CC1(C)S[C@@H]2[C@H](NC(=O)[C@H](NC(=O)C3=C(O)C(c4ccccc4F)NC3=O)c3ccccc3)C(=O)N2[C@H]1C(=O)O (stereo partly shown)	microbial growth, broth dilution	MRSA NRS70	drug-resistant strain	50 µg/mL
Oc1c(Br)cc(Br)c2nc3cc(SC(F)(F)F)ccc3nc12	broth microdilution	MRSA 44	–	0.05 µM
CCN(CC)CCCN1/C(=C/c2cc(C)[n+](C)c3ccccc23)Sc2ccccc21	microbial growth, broth dilution	ATCC29213	–	2 µg/mL
C=CCNCc1cc(N(C)C)c2c(c1O)C(=O)C1=C(O)[C@]3(O)C(=O)C(C(N)=O)=C(O)[C@@H](N(C)C)[C@@H]3C[C@@H]1C2	–	MRSA 5, Tet M ribosome protection	–	1 µg/mL
CCc1nc(N)nc(N)c1C#CC(C)c1cc(-c2ccncc2)ccc1OC (racemic)	broth microdilution	ATCC 43300	18 h, 37 °C	0.625 µg/mL
CC[C@H](C)[C@H](NC(=O)CNC(=O)[C@H](CC(N)=O)NC(=O)[C@H](CCCNC(=N)N)NC(=O)[C@@H](NC(=O)[C@H](CC(N)=O)NC(=O)[C@H](CCCNC(=N)N)NC(=O)CNC(=O)[C@H](CCSC)NC(=O)[C@H](CCCCN)NC(=O)[C@H](CCC(=O)O)NC(=O)[C@@H](NC(=O)[C@H](CCCCN)NC(=O)[C@H](CCCCN)NC(=O)[C@H](Cc1ccccc1)NC(=O)[C@@H](NC(=O)[C@H](CCCCN)NC(=O)[C@H](Cc1c[nH]c2ccccc12)NC(=O)[C@@H](N)CCCCN)C(C)C)[C@@H](C)CC)[C@@H](C)CC)C(=O)N[C@H](C(=O)N[C@@H](CCCCN)C(=O)N[C@@H](C)C(=O)NCC(=O)N1CCC[C@H]1C(=O)N[C@@H](C)C(=O)N[C@H](C(=O)N[C@@H](C)C(=O)N[C@H](C(=O)N[C@@H](CC(C)C)C(=O)NCC(=O)N[C@@H](CCC(=O)O)C(=O)N[C@@H](C)C(=O)N[C@@H](CCCCN)C(=O)N[C@@H](C)C(=O)N[C@@H](CC(C)C)C(N)=O)C(C)C)[C@@H](C)CC)C(C)C	–	ATCC 6538	–	inactive
CC(C)CCOC1C(C)C2C(C=CC3C(C)C=CC=CC(C)OC(=O)C(C)C(=O)C(Cl)(Cl)C(=O)C32)CC1(C)O (stereo not shown)	microbial growth, broth dilution	NEWMAN	–	1.6 µg/mL
CC1C(=O)NC(=O)N1/N=C/c1ccc([N+](=O)[O-])o1 (stereo not shown)	microbial growth, broth dilution	ATCC29213	18 h	25 µg/mL
O=C(O)c1ccc(-n2cc(/C=N/Nc3cccc(Cl)c3F)c(-c3ccc4ccccc4c3)n2)cc1	microbial growth	ATCC25923	–	1.56 µg/mL
CN(C)c1cc(CN2CCc3ccccc3C2)c(O)c2c1C[C@H]1C[C@H]3[C@H](N(C)C)C(O)=C(C(N)=O)C(=O)[C@@]3(O)C(O)=C1C2=O	microbial growth, broth dilution	–	–	0.5 µg/mL
CC(C)CS[C@H]1[C@H](O)[C@@H](N)[C@@H](O[C@H]2[C@H](O[C@@H]3O[C@H](CO)[C@@H](O[C@H]4O[C@@H](CN)[C@@H](O)[C@H](O)[C@H]4N)[C@H]3O)[C@@H](O)[C@H](N)C[C@@H]2N)O[C@@H]1CO	–	methicillin-resistant	–	2 µg/mL
CCCCCCCCCc1nc2ccccc2c(=O)n1O	broth microdilution	RN6390B	–	100 µM
CCn1cc(/C=C/c2sc3ccccc3[n+]2CC)c2ccccc21	–	1466, Mueller-Hinton broth	–	1 ± 0.005 µg/mL
CC(=NNC(=N)N)c1nnn(-c2ccc(C#CC3(O)CCCCC3)cc2)c1C	microbial growth	ATCC43300 MRSA	–	3.9 µg/mL
CN(C)c1cc(CNCc2ccc(O)cc2)c(O)c2c1C[C@H]1C[C@H]3[C@H](N(C)C)C(O)=C(C(N)=O)C(=O)[C@@]3(O)C(O)=C1C2=O	microbial growth, broth dilution	–	–	4 µg/mL

SMILES	test	test system	conditions	MIC
COc1ccccc1N1CCN(Cn2nc(C34CC5CC(CC(C5)C3)C4)n(-c3ccccc3)c2=S)CC1	two-fold dilution	IFO 3060	24 h, 36 °C	2 µg/mL
CN(C)c1cc(CNC(C)(C)C)c(O)c2c1C[C@H]1C[C@H]3[C@H](N(C)C)C(O)=C(C(N)=O)C(=O)[C@@]3(O)C(O)=C1C2=O	–	MRSA 5, Tet M ribosome protection	–	4 µg/mL
Oc1c(Br)ccc2cccnc12	microbial growth, agar dilution	ATCC25923	–	35.7 µM
Cc1cc(/C=C2\Sc3ccccc3N2CCCN2CCCC2)c2ccccc2[n+]1C	microbial growth, broth dilution	ATCCBAA41 MRSA	–	8 µg/mL
O=[N+]([O-])c1cccc(S(=O)(=O)NC[C@@H](O)[C@@H]2CCc3cc(F)ccc3O2)c1	microbial growth	–	–	10.2 µg/mL
CN(C)c1cc(CNc2ccccc2)c(O)c2c1C[C@H]1C[C@H]3[C@H](N(C)C)C(O)=C(C(N)=O)C(=O)[C@@]3(O)C(O)=C1C2=O	–	MRSA 5, Tet M ribosome protection	–	4 µg/mL
NCCn1c(CCCc2ccccc2)nc2cc(Cl)ccc2c1=O	broth microdilution	RN6390B	–	100 µM
CN(C)c1cc(CN2CCCCCC2)c(O)c2c1C[C@H]1C[C@H]3[C@H](N(C)C)C(O)=C(C(N)=O)C(=O)[C@@]3(O)C(O)=C1C2=O	–	RN4250, Tet K efflux	–	1 µg/mL
NC[C@@H]1O[C@H](O[C@H]2[C@@H](O)[C@H](O[C@@H]3[C@@H](O)[C@H](N)C[C@H](N)[C@H]3O[C@H]3O[C@H](CO)[C@@H](OCC(O)CO)[C@H](O)[C@H]3N)O[C@@H]2CO)[C@H](N)[C@@H](O)[C@@H]1O (stereo partly shown)	broth microdilution	MRSA isolate AG 044	–	32 µg/mL
CNC(CC(C)C)C(=O)NC1C(=O)NC(CC(N)=O)C(=O)NC2C(=O)NC3C(=O)NC(C(=O)NC(C(=O)O)c4cc(O)cc(O)c4-c4cc3ccc4O)C(O)c3ccc(c(Cl)c3)Oc3cc2cc(c3OC2OC(CO)C(O)C(O)C2OC2CC(C)(NC(=O)CCCCCCCCC[N+](C)(C)Cc3ccccc3)C(O)C(C)O2)Oc2ccc(cc2Cl)C1O (stereo not shown)	agar dilution	MRSA clinical isolate MRSA3	–	32 µg/mL
CC1=C[C@@]2(C)C(=C(C)[C@H]3[C@@H]4C[C@H](C)C[C@H](C)[C@H]4[C@H]4Oc5ccc(cc5)C[C@]5(O)NC(=O)[C@]6(O[C@H]65)C(=O)[C@@H]2[C@@H]43)[C@H]1C	microbial growth, broth dilution	ATCC29213	–	3.1 µM
COCO[C@H]1[C@H](O)[C@@H](N)[C@@H](O[C@H]2[C@H](O[C@@H]3O[C@H](CO)[C@@H](O[C@H]4O[C@@H](CN)[C@@H](O)[C@H](O)[C@H]4N)[C@H]3O)[C@@H](O)[C@H](N)C[C@@H]2N)O[C@@H]1CO	broth microdilution	MRSA isolate AG 044	–	16 to 32 µg/mL
CCCCCCc1ccc(Oc2ccccc2C#N)c(O)c1	microbial growth, broth dilution	–	–	2 µM
CNCc1cc(N(C)C)c2c(c1O)C(=O)C1=C(O)[C@]3(O)C(=O)C(C(N)=O)=C(O)[C@@H](N(C)C)[C@@H]3C[C@@H]1C2	–	MRSA 5, Tet M ribosome protection	–	4 µg/mL
COc1ccc(-c2csc(N/N=C(\C)c3ccc4c(c3)sc3nc(=O)c(C#N)cn34)n2)cc1	microbial growth, broth dilution	–	–	< 40 µg/mL

Excerpt of the above:
SMILES	test	test system	conditions	MIC
CNC(CC(C)C)C(=O)NC1C(=O)NC(CC(N)=O)C(=O)NC2C(=O)NC3C(=O)NC(C(=O)NC(C(=O)O)c4cc(O)cc(O)c4-c4cc3ccc4O)C(O)c3ccc(c(Cl)c3)Oc3cc2cc(c3OC2OC(CO)C(O)C(O)C2OC2CC(C)(NC(=O)CCCC[N+](C)(C)C)C(O)C(C)O2)Oc2ccc(cc2Cl)C1O (stereo not shown)	agar dilution	MRSA clinical isolate MRSA3	–	512 µg/mL
CC1(C)S[C@@H]2[C@H](NC(=O)[C@H](NC(=O)C3=C(O)C(c4ccccc4F)NC3=O)c3ccccc3)C(=O)N2[C@H]1C(=O)O (stereo partly shown)	microbial growth, broth dilution	MRSA NRS70	drug-resistant strain	50 µg/mL
